Experimental data of several laboratories.
Numbered parts are unrelated; each lists some results of a single study.
UniProt Q9UBS0, sequence (whole entry, looked up): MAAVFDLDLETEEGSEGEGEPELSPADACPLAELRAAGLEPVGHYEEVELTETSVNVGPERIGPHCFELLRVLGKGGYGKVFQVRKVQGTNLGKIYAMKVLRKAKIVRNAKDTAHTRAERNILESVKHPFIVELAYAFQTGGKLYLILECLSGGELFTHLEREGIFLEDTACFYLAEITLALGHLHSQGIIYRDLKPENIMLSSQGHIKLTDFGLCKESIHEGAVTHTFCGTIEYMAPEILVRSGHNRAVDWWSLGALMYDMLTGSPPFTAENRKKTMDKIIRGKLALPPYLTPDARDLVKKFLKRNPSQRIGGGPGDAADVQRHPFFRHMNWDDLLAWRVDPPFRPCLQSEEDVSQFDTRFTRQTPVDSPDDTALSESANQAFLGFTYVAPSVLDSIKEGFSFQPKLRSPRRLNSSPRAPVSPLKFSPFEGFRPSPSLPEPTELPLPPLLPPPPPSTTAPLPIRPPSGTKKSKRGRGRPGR
UniProt P19525, sequence (whole entry, looked up): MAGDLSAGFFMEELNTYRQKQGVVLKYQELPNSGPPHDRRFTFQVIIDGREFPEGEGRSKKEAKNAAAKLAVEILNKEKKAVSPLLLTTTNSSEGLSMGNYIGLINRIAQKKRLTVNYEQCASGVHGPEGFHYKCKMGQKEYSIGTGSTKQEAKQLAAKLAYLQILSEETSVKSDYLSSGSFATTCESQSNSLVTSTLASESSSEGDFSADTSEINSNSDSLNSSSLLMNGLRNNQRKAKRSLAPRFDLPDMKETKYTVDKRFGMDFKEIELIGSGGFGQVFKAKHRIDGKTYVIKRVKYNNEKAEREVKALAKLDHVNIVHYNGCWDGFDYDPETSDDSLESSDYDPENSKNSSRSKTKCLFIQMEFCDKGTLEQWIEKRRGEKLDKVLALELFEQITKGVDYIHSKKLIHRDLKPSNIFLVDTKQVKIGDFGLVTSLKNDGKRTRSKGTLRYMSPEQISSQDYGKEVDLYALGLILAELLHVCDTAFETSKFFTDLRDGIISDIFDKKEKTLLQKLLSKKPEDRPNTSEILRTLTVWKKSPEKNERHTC
UniProt P48730, sequence (whole entry, looked up): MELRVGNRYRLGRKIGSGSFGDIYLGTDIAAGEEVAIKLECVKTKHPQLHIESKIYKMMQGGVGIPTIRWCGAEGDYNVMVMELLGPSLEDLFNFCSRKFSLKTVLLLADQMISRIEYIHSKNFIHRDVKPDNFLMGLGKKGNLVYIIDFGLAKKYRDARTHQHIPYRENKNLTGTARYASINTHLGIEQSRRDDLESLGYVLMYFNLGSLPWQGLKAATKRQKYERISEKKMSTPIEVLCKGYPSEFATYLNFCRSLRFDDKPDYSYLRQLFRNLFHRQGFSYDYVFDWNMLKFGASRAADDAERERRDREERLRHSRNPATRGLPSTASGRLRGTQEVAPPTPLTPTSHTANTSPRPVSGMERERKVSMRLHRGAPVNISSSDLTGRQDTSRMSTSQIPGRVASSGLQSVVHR
UniProt Q9BZL6, sequence (whole entry, looked up): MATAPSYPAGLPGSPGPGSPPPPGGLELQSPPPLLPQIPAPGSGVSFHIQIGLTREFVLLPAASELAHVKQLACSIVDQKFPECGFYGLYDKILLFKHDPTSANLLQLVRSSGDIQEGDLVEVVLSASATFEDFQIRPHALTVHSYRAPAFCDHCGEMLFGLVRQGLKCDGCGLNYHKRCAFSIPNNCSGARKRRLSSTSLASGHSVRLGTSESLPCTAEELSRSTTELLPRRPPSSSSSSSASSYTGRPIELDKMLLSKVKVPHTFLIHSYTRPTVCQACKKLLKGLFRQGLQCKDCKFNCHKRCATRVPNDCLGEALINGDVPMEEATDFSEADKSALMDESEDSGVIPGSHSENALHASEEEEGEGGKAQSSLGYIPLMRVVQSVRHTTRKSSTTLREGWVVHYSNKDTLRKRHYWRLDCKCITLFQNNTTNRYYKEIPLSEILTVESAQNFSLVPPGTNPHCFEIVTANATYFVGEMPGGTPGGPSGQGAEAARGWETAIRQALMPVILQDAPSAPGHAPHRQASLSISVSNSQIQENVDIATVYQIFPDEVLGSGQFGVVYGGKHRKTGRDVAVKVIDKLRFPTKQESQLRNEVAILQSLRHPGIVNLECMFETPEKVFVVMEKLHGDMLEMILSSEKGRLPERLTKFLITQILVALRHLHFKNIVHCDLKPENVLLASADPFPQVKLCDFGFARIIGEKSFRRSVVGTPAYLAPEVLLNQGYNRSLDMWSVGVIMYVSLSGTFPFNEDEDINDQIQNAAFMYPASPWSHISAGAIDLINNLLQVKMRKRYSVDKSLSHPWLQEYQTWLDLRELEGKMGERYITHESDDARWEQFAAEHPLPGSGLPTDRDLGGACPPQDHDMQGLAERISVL
UniProt Q8N5S9, sequence (whole entry, looked up): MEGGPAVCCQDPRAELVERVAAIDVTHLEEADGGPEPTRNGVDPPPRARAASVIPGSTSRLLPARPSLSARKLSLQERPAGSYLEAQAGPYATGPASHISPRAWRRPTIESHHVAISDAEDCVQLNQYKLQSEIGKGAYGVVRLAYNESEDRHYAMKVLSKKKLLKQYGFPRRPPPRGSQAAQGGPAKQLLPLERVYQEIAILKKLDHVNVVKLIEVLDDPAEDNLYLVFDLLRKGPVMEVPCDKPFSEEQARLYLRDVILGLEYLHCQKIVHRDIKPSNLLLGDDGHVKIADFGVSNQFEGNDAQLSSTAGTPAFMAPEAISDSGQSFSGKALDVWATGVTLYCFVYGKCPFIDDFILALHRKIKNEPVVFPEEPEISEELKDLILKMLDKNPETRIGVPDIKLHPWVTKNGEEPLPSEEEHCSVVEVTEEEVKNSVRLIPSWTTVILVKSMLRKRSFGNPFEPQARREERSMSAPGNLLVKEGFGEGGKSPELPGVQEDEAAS
UniProt Q9NQU5, sequence (whole entry, looked up): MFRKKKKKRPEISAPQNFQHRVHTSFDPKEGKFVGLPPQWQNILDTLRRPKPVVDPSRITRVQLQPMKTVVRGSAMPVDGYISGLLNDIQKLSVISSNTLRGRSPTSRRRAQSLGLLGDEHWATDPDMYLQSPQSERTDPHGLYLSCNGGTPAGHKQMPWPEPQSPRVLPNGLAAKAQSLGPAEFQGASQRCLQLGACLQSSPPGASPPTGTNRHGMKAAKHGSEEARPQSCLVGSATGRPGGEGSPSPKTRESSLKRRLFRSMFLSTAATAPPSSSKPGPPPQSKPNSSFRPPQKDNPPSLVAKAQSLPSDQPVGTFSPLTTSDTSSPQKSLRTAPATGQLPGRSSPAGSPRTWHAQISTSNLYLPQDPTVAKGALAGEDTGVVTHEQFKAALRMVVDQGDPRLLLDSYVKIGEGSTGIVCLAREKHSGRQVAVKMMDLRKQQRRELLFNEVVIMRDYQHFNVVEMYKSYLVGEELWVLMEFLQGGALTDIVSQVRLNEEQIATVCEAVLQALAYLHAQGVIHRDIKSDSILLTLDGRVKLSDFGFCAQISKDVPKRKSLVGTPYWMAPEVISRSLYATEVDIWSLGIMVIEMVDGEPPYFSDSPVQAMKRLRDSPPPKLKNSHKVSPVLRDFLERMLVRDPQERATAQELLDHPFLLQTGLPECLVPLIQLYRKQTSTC
UniProt P49759, sequence (whole entry, looked up): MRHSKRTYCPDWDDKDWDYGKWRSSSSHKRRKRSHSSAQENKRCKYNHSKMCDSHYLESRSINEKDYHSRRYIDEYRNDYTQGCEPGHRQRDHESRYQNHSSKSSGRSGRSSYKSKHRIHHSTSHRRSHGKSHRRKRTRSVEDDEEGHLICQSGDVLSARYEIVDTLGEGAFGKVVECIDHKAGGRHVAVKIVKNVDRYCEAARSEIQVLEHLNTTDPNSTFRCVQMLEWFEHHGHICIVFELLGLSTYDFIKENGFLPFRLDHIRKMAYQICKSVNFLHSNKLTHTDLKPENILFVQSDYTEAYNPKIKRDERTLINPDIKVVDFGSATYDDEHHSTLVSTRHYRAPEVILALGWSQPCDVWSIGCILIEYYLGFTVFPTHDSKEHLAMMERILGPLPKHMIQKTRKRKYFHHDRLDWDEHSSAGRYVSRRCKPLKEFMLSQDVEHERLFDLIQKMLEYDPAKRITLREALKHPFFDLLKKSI
UniProt P27037, sequence (whole entry, looked up): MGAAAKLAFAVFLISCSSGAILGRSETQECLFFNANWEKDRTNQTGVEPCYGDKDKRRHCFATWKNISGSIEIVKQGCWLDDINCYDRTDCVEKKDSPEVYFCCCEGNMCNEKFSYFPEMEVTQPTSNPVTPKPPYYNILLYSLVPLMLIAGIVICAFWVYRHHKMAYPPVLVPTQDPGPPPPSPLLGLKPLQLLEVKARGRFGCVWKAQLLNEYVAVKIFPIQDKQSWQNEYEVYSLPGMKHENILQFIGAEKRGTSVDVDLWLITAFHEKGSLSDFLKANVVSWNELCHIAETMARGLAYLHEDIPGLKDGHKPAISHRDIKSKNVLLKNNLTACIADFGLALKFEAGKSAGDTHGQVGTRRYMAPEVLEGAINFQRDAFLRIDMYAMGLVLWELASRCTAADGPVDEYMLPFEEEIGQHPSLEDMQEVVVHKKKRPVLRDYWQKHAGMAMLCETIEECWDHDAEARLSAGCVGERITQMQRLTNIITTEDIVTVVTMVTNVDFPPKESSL
UniProt P45984, sequence (whole entry, looked up): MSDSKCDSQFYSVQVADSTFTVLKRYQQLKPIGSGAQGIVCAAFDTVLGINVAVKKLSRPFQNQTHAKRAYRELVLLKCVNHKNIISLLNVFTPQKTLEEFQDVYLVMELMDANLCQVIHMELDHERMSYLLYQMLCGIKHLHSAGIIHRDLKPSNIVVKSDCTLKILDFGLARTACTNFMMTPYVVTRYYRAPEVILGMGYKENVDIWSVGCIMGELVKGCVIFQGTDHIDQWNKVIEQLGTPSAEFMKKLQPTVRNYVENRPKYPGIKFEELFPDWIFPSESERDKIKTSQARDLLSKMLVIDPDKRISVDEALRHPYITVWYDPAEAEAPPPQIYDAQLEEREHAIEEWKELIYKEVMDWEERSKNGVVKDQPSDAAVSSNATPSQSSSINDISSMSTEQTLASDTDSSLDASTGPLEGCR

Set 1
SMILES: CN1CCN(C(=O)c2ccc(NC(=O)Nc3ccc(N(C)c4ccnc(Nc5ccc(CS(C)(=O)=O)cc5)n4)cc3)cc2)CC1
Effect on: binding
Tested at: 1 µM
| target | assay | remaining binding |
| --- | --- | --- |
| FLT3 (Homo sapiens, UniProt P36888) | competition with immobilised ligand | 1.5% |
| ALK (Homo sapiens, UniProt Q9UM73) | – | 76% |
| EIF2AK2 (Homo sapiens, UniProt P19525) | – | 100% |
| PIKFYVE (Homo sapiens, UniProt Q9Y2I7) | – | 100% |
| BLK (Homo sapiens, UniProt P51451) | competition with immobilised ligand | 87% |
| STK35 (Homo sapiens, UniProt Q8TDR2) | competition with immobilised ligand | 71% |
| PRKD2 (Homo sapiens, UniProt Q9BZL6) | – | 100% |
| ACVR2A (Homo sapiens, UniProt P27037) | competition with immobilised ligand | 78% |
| CILK1 (Homo sapiens, UniProt Q9UPZ9) | – | 44% |
| MAPK9 (Homo sapiens, UniProt P45984) | competition with immobilised ligand | 19% |

Set 2
Sample: hydrocarbon/water
| Compound | logD |
| --- | --- |
| CCC[C@H]1NC(=O)[C@H](CC(C)C)NC(=O)[C@H](Cc2ccc(O)cc2)NC(=O)[C@H]2CCCN2C(=O)[C@H](CC2CCCCC2)NC(=O)[C@H](CC2CCCCC2)NC1=O | 1.69 |
| CCOC(=O)[C@@H]1CSCC(=O)N[C@@H](CC)C(=O)N(C)[C@@H](C)C(=O)N[C@H](CC(C)C)C(=O)N2CCC[C@H]2C(=O)N(CC(C)C)CC(=O)N[C@@H](CC(C)C)C(=O)N(C)[C@@H](C)C(=O)N[C@@H](CC(C)C)C(=O)N1C | 0.612 |
| CCCN1CC(=O)N[C@@H](CC(C)C)C(=O)N(C)[C@@H](C)C(=O)N[C@@H](CC(C)C)C(=O)N(C)Cc2cn(nn2)CC(=O)N[C@@H](CC(C)C)C(=O)N(C)[C@@H](C)C(=O)N[C@@H](CC(C)C)C(=O)N2CCC[C@@H]2C1=O | 0.0651 |
| CC(C)C[C@@H]1NC(=O)CN(CCCOC(C)C)C(=O)[C@H](C)NC(=O)[C@H](CC(C)C)N(C)C(=O)[C@H]2CCCN2C(=O)[C@H](C)NC(=O)CN(CC2CCOCC2)C(=O)[C@H](C)NC(=O)[C@H](CC(C)C)N(C)C(=O)[C@H]2CCCN2C1=O | 0.353 |
| CCCN1CC(=O)N[C@@H](CC(C)C)C(=O)N2CCC[C@@H]2C(=O)N(C)[C@@H](C)C(=O)N[C@@H](CC2CCCCC2)C(=O)N(C)[C@@H](C)C(=O)N[C@@H](CC(C)C)C(=O)N(C)Cc2cn(nn2)CC(=O)N[C@@H](CC(C)C)C1=O | 1.01 |
| CCCN1CC(=O)N[C@@H](C2CCCCC2)C(=O)N2CCC[C@@H]2C(=O)N(C)[C@@H](C)C(=O)N[C@@H](CC2CCCCC2)C(=O)N(C)[C@@H](C)C(=O)N[C@@H](CC(C)C)C(=O)N(C)Cc2cn(nn2)CC(=O)N[C@@H](CC(C)C)C1=O | 1.52 |
| CC[C@@H]1NC(=O)[C@@H](CC(C)C)NC(=O)[C@H](CC(C)C)NC(=O)[C@H](Cc2ccccc2)NC(=O)[C@H]2CCCN2C(=O)[C@H](CC(C)C)NC1=O | 0.642 |
| CCCCCN1CC(=O)N[C@@H](C)C(=O)N2CCC[C@@H]2C(=O)N(C)[C@@H](CC(C)C)C(=O)N[C@@H](C)C(=O)N(CC)CC(=O)N[C@@H](CC(C)C)C(=O)N2CCC[C@@H]2C(=O)N(C)[C@@H](CC(C)C)C(=O)N[C@@H](C)C1=O | 1.31 |

Set 3
SMILES: Cc1nc(Nc2ncc(C(=O)Nc3c(C)cccc3Cl)s2)cc(N2CCN(CCO)CC2)n1
Effect on: enzyme activity
Mode: inhibitor
Tested at: 0.5 µM
Baseline: control
| target | remaining activity [%] |
| --- | --- |
| CSNK1D (Homo sapiens, UniProt P48730) | 84.1 |
| PAK5 (Homo sapiens, UniProt Q9P286) | 91.1 |
| TEC (Homo sapiens, UniProt P42680) | 11.3 |
| CAMK1 (Homo sapiens, UniProt Q14012) | 106 |
| RPS6KB2 (Homo sapiens, UniProt Q9UBS0) | 101 |
| RPS6KA3 (Homo sapiens, UniProt P51812) | 99.8 |
| IGF1R (Homo sapiens, UniProt P08069) | 97.5 |
| PRKCQ (Homo sapiens, UniProt Q04759) | 97.3 |
| CSNK1E (Homo sapiens, UniProt P49674) | 89.5 |
| MUSK (Homo sapiens, UniProt O15146) | 106 |
| CLK1 (Homo sapiens, UniProt P49759) | 102 |
| MARK1 (Homo sapiens, UniProt Q9P0L2) | 107 |
| PAK6 (Homo sapiens, UniProt Q9NQU5) | 136 |
| CAMKK1 (Homo sapiens, UniProt Q8N5S9) | 99.7 |
| ERBB2 (Homo sapiens, UniProt P04626) | 79.8 |
| FES (Homo sapiens, UniProt P07332) | 110 |
| EPHA6 (Homo sapiens, UniProt Q9UF33) | 50.5 |
| JAK1 (Homo sapiens, UniProt P23458) | 101 |
| Cyclin-dependent kinase 2, with cyclin E (CDK2, Homo sapiens, UniProt P24941) | 95.9 |
| BRSK2 (Homo sapiens, UniProt Q8IWQ3) | 99.2 |
| PAK4 (Homo sapiens, UniProt O96013) | 98.7 |

Set 4
Target: Diamine acetyltransferase 1 (Homo sapiens, UniProt P21673)
Mode: inhibitor
Tested at: 10 µM
Baseline: control
Target sequence (P21673 1-171): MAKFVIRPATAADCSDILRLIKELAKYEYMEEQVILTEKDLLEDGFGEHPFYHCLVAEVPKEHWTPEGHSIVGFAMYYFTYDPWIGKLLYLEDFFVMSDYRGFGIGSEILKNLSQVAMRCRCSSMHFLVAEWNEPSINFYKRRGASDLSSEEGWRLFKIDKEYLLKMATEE
| SMILES | remaining activity |
| --- | --- |
| COc1ccc([C@@H]2CC(=O)c3c(O)cc(O[C@@H]4O[C@H](CO[C@@H]5O[C@@H](C)[C@H](O)[C@@H](O)[C@H]5O)[C@@H](O)[C@H](O)[C@H]4O)cc3O2)cc1 | 99.9% |
| NCC(=O)O | 94.5% |
| C=C(CC[C@@H](C(=O)O)[C@H]1CC[C@@]2(C)C3=CC[C@H]4C(C)(C)[C@@H](OC(C)=O)CC[C@]4(C)C3=CC[C@]12C)C(C)C | 110% |
| CC(C)=CCC[C@@H](C(=O)O)[C@H]1CC[C@@]2(C)C3=CC[C@H]4C(C)(C)[C@@H](O)CC[C@]4(C)C3=CC[C@]12C | 101% |
| COC(=O)c1ccc(O)cc1O | 112% |
| C/C=C/C(=O)C1=C(C)CCCC1(C)C | 82.6% |
| CC(C)=CCCC(C)CC=O (stereo not shown) | 83.2% |
| C=C[C@H]1[C@H](O[C@@H]2O[C@H](CO)[C@@H](O)[C@H](O)[C@H]2O)OC=C2C(=O)OCC[C@]21O | 96.9% |
| CC(C)(O)[C@@H](O)COc1c2ccoc2cc2oc(=O)ccc12 | 81.5% |
| c1ccc(Sc2ccccc2)cc1 | 88.2% |
